# Assay results collected from several papers.
# A part holds a random share of what one study measured.
# Sequence of UniProt Q9Y6M4 (whole entry, looked up): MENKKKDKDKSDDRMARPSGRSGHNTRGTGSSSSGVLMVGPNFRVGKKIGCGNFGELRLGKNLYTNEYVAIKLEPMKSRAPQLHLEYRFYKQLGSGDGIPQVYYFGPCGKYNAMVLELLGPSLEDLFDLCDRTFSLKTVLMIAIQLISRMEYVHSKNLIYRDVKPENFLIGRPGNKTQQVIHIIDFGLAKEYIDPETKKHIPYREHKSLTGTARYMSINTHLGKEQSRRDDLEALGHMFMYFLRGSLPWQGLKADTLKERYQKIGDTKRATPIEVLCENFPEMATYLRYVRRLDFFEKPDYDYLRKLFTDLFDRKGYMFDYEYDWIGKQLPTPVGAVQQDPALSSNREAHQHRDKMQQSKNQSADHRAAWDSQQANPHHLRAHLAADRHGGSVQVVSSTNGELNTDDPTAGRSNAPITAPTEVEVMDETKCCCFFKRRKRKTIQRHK
# Sequence of UniProt Q04912 (whole entry, looked up): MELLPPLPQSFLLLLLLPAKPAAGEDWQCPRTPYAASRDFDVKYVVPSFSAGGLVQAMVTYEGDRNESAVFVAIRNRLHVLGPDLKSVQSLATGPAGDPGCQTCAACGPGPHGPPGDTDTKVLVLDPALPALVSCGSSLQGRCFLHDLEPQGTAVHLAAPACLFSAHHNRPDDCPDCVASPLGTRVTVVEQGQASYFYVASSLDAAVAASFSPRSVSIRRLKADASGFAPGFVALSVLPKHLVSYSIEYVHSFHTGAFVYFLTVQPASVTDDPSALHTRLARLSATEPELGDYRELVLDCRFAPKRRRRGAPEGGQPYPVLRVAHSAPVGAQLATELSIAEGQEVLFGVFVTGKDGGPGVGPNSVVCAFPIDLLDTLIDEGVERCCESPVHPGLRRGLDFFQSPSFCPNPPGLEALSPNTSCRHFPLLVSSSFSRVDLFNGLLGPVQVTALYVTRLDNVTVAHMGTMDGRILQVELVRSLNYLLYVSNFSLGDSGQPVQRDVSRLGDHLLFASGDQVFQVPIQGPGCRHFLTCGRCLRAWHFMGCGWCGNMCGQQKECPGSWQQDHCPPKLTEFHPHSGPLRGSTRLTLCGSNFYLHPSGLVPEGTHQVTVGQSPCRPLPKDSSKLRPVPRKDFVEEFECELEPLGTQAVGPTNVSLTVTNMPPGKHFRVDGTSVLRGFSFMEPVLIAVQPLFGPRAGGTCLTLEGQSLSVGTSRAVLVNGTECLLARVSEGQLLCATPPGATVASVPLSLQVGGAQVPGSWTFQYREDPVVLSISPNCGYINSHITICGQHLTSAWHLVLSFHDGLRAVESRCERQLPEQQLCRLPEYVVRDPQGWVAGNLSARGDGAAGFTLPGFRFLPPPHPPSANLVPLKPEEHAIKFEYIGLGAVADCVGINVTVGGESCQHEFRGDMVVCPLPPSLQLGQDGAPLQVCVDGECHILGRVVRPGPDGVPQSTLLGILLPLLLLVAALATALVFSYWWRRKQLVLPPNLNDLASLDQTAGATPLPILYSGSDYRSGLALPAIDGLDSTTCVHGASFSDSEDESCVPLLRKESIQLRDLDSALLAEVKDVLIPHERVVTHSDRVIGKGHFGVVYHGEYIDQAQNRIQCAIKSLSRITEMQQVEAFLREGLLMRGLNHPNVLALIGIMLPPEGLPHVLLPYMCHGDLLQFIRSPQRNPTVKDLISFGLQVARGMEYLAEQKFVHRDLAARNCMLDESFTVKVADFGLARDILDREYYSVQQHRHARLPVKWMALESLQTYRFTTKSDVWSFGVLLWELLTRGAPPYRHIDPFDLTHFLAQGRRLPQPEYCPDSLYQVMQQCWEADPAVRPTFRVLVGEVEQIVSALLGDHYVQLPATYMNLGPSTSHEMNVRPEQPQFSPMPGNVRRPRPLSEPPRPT
# Sequence of UniProt Q16288 (whole entry, looked up): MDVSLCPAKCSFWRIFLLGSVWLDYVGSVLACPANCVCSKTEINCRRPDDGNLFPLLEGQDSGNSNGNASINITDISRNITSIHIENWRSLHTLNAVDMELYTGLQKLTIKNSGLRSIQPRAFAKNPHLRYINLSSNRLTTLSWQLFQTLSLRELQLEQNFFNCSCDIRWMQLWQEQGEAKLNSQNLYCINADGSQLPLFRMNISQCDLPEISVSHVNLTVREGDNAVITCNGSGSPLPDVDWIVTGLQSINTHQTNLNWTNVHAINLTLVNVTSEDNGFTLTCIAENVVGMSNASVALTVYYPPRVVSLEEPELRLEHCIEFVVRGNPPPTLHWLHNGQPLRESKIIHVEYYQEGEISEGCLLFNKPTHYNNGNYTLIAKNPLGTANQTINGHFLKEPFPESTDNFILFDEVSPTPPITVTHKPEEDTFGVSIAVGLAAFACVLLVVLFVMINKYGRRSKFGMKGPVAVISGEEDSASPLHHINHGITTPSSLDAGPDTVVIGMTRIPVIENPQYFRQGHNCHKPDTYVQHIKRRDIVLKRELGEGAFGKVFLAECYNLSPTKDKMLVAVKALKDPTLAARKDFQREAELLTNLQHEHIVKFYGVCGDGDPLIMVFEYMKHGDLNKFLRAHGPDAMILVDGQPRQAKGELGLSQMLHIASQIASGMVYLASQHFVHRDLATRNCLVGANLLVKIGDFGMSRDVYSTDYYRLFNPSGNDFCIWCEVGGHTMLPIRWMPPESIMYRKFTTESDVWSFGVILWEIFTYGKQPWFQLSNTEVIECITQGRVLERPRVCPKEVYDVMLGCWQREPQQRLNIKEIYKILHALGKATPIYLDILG
# Sequence of UniProt P42684 (whole entry, looked up): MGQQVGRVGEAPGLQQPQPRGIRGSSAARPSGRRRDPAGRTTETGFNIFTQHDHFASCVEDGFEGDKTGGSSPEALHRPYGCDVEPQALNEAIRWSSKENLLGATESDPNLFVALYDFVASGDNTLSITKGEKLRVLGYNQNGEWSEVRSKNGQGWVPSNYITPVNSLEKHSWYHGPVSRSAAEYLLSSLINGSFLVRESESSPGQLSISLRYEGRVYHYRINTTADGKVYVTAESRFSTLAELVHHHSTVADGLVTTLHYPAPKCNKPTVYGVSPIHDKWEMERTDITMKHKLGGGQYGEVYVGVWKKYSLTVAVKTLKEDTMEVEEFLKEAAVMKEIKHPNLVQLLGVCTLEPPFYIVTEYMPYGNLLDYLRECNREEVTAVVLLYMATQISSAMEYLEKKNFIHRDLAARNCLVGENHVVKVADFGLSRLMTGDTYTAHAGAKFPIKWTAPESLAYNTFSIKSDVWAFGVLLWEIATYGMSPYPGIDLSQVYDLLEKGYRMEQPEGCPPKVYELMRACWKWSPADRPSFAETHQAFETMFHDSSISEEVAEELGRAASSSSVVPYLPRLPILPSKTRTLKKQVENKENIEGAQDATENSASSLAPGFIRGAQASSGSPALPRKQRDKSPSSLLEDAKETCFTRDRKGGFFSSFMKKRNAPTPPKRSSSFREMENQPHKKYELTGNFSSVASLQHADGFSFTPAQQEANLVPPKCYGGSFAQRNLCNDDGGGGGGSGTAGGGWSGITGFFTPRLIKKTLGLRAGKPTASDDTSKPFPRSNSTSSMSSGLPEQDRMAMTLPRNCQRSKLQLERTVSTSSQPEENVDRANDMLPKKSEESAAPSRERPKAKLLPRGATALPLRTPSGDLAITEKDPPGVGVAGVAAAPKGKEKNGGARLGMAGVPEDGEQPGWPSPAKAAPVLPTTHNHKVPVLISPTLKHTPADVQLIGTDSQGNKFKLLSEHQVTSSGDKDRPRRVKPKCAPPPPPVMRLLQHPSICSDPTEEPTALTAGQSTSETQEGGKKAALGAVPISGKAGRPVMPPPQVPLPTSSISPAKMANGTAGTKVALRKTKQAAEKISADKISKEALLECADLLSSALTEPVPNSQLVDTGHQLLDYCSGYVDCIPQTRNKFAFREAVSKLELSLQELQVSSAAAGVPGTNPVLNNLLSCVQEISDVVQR
# Sequence of UniProt Q9UEE5 (whole entry, looked up): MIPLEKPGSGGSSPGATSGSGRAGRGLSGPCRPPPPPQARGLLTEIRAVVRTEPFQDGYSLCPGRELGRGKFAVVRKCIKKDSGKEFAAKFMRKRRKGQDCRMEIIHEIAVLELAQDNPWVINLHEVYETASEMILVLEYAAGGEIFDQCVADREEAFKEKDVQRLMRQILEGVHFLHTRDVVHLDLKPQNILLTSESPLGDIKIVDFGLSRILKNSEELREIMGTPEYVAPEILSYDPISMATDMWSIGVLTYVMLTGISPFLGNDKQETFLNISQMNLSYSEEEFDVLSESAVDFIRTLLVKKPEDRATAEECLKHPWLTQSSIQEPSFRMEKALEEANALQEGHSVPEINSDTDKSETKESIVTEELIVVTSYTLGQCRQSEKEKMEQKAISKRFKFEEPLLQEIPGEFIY
# Sequence of UniProt Q15569 (whole entry, looked up): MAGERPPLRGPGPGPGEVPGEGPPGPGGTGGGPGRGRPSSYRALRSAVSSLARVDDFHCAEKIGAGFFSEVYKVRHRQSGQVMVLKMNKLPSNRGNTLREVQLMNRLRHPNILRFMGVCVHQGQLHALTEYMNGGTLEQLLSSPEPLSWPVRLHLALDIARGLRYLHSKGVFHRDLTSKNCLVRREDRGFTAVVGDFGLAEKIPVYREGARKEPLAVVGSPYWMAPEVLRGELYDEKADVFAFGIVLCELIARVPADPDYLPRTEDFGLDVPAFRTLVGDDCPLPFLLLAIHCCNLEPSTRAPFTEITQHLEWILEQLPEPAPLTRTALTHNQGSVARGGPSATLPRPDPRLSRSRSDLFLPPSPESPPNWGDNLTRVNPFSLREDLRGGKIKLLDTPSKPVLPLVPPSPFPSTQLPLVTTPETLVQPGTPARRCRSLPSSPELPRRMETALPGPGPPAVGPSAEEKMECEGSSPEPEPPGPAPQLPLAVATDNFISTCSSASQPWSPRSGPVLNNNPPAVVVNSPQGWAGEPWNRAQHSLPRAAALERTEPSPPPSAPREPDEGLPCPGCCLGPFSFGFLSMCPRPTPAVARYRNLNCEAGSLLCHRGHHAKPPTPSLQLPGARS

# Sample 1
# Species: human
# Matrix: microsomes or S9
# Tested at: 2 µM
# Time: 0.5 h
SMILES,remaining compound [%]
COc1cc(OC)c(-c2[nH]nc3c2C(=O)CCC3)cc1OC,52.1
C[C@H]1CN(c2c(F)cc3c(=O)c(C(=O)O)cn4c3c2OC[C@@H]4C)C[C@H]1N,93.5
COc1nc(C)cc(C)c1-c1nc2c([nH]1)CC(C)(C)CNC2=O,83.8
Cc1c(C)n(C2CCCCC2)c2ncn(CCCO)c(=N)c12,> 99
COc1cc2c(cc1OC)CN(C(=O)COc1cn(C)c(C)cc1=O)[C@H](C(N)=O)C2,95.5

# Sample 2
# SMILES: C[C@H](c1ccc(F)cc1)N(Cc1cccc(C(=O)O)c1)C(=O)c1cnc2ccccc2c1
# Technique: competition with immobilised ligand
# Tested at: 1 µM
target,observed,remaining binding
"TESK1 (Homo sapiens, UniProt Q15569)",cell-free assay,100%
"RIOK1 (Homo sapiens, UniProt Q9BRS2)",cell-free assay,100%
"STK17A (Homo sapiens, UniProt Q9UEE5)",cell-free assay,86%
"SLK (Homo sapiens, UniProt Q9H2G2)",cell-free assay,100%
"NTRK3 (Homo sapiens, UniProt Q16288)",cell-free assay,92%
"Insulin receptor (INSR, Homo sapiens, UniProt P06213)",cell-free assay,100%
"CSNK1G3 (Homo sapiens, UniProt Q9Y6M4)",cell-free assay,100%
"Tyrosine-protein kinase ABL1, non-phosphorylated (ABL1, Homo sapiens, UniProt P00519, F317I)",binding,72%
"IKBKB (Homo sapiens, UniProt O14920)",cell-free assay,100%
"LRRK2 (Homo sapiens, UniProt Q5S007)",cell-free assay,100%

# Sample 3
# Organism: Sarcocystis neurona
# Observed: parasite growth
# Tested at: 10 µM
# Time: 96 h
# Notes: secondary screen
SMILES,inhibition
Nc1c2c(nc3c1CCC3)CCCC2,-17.3%
Cc1ccc(O)c([C@H](CCN(C(C)C)C(C)C)c2ccccc2)c1,-27.9%
CCCNC(=O)NS(=O)(=O)c1ccc(Cl)cc1,-25.2%
CC(=O)Nc1ccc(CC(=O)O)cc1,-22.7%
C[C@H]1COc2c(C3(N)CC3)c(F)cc3c(=O)c(C(=O)O)cn1c23,-22.5%
Cc1noc(NS(=O)(=O)c2ccc(N)cc2)c1C,-25.4%
CNCCCN1c2ccccc2CCc2ccccc21,-23.9%

# Sample 4
# SMILES: Ic1cccc(CSc2nnc(-c3ccncc3)o2)c1
# Observed: enzyme activity
# Action: inhibitor
# Tested at: 0.5 µM
# Relative to: control
target,remaining activity
"MST1R (Homo sapiens, UniProt Q04912)",104%
"ACVR1B (Homo sapiens, UniProt P36896)",102%
"CSNK1G2 (Homo sapiens, UniProt P78368)",99.2%
"CSNK1G3 (Homo sapiens, UniProt Q9Y6M4)",75.9%
"ABL2 (Homo sapiens, UniProt P42684)",110%
"JAK3 (Homo sapiens, UniProt P52333)",106%
"WEE1 (Homo sapiens, UniProt P30291)",97.2%
"EPHA3 (Homo sapiens, UniProt P29320)",111%
"MAPK3 (Homo sapiens, UniProt P27361)",95.8%
"MAP2K2 (Homo sapiens, UniProt P36507)",102%
"TEK (Homo sapiens, UniProt Q02763)",92.6%
"MAP3K5 (Homo sapiens, UniProt Q99683)",91.7%

# A few entries again (sample 4):
target,remaining activity
"CSNK1G2 (Homo sapiens, UniProt P78368)",99.2%
"MAPK3 (Homo sapiens, UniProt P27361)",95.8%
"ABL2 (Homo sapiens, UniProt P42684)",110%
